Published values from different studies.
Compare with care: the assays were run in different laboratories.
Cell line: L1210
Observed: cell growth or viability

SMILES	time	IC50 [µM]
O=C1C(=Cc2ccccc2)CN(C(=O)C#CC(=O)N2CC(=Cc3ccccc3)C(=O)C(=Cc3ccccc3)C2)CC1=Cc1ccccc1		9.86
COC(=O)c1cc(CCc2cc(OC)ccc2OC)ccc1O	48 h	0.36
C=C(Br)C(=O)Nc1c(C(=O)c2cc(OC)c(OC)c(OC)c2)oc2cc(OC)ccc12	24 h	5.02
O=C1C(=Cc2ccccc2)CN(C(=O)c2ccccc2C(=O)N2CC(=Cc3ccccc3)C(=O)C(=Cc3ccccc3)C2)CC1=Cc1ccccc1		4.19
Nc1ncnc2c1ncn2[C@@H]1O[C@H](CO)[C@@H](O)[C@H](F)[C@H]1O		166
CCOP(=O)(OCC)[C@H]1C[C@@H](Cn2c(=O)n(C(=O)c3ccc(F)cc3)c(=O)c3ccccc32)ON1C (relative stereo)	48 h	> 250
COc1cc(C(=O)c2oc3ccccc3c2NC(=O)CI)cc(OC)c1OC	24 h	0.81
Nc1ccn([C@@H]2O[C@H](CO)[C@@H](O)[C@H](F)[C@H]2O)c(=O)n1		159

Some of these lines once more:
SMILES	time	IC50 [µM]
O=C1C(=Cc2ccccc2)CN(C(=O)c2ccccc2C(=O)N2CC(=Cc3ccccc3)C(=O)C(=Cc3ccccc3)C2)CC1=Cc1ccccc1		4.19
